{"data": "Assay results of several laboratories", "note": "Protocols differ between the studies behind these lines. Values joined by “and” are separate records of one study, mostly repeats; a detail may differ. ± gives the spread as reported."}
{"SMILES": "C1=C/COCc2cc(ccc2OCCN2CCCC2)Nc2nccc(n2)-c2cccc(c2)COC/1", "test system": "Sprague-Dawley rats, male, plasma", "setting": "oral, dose not given, together with: isavuconazole", "scale": "baseline: isavuconazole alone", "AUC(0-t)": "2.5 fold increase"}
{"SMILES": "Cc1ccc2c(c1)C(=O)[C@]1(O)CCN(c3ccc4nc(C)ccc4c3)C1=N2.Cl", "test system": "rat", "setting": "subcutaneous, 30 mg/kg", "AUC(0-t)": "15.4 µM·h"}
{"SMILES": "O=C1c2ccncc2C(=O)c2c1[nH]c1ccccc21", "test system": "Sprague-Dawley rat male, plasma", "setting": "intravenous, 1 mg/kg", "AUC(0-t)": "0.552 ± 0.223 µM·h"}
{"SMILES": "C=CC(=O)N1CCC(Oc2cc3c(Nc4ccc(Cl)c(Cl)c4F)ncnc3cc2OC)CC1", "test system": "male Sprague-Dawley rats, plasma", "setting": "oral, 2 mg/kg", "AUC(0-t)": "3810 ± 511 ng·h/mL"}
{"SMILES": "CCc1c(-c2ccccc2)c(-c2ccccc2)nn1-c1ccccc1-c1cccc(OCC(=O)O)c1", "test system": "Sprague-Dawley rat", "setting": "intravenous, dose not given", "AUC(0-t)": "3250 ng·h/mL and 3090 ng·h/mL and 2390 ng·h/mL"}
{"SMILES": "CSc1ccccc1C(=O)NCCn1cc(C(=O)NCc2cccc(C)n2)c(=O)c2cc3c(cc21)OC(F)(F)O3", "test system": "Sprague-Dawley rat, male, plasma", "setting": "intravenous, 5 mg/kg of parent drug", "AUC(0-t)": "106 ± 7.7 ng·h/mL"}
{"SMILES": "CN1CCC[C@H](CN2c3ccccc3Sc3ccccc32)C1.Cl", "test system": "Wistar rat female, skin", "setting": "oral, 16 mg/kg", "AUC(0-t)": "19600 ng·h/mL"}
{"SMILES": "Cc1ccc(S(=O)(=O)n2cc3c4c2C(=O)C(NCc2ccc(Cl)cc2)=CC4=NCC3)cc1", "test system": "Sprague-Dawley rat, plasma", "setting": "intravenous, 5 mg/kg, individual rat", "AUC(0-t)": "1870 ng·h/mL and 696 ng·h/mL and 1580 ng·h/mL"}
{"SMILES": "CC[C@@H]([C@H](C)O)n1ncn(-c2ccc(N3CCN(c4ccc(OC[C@@H]5CO[C@@](Cn6cncn6)(c6ccc(F)cc6F)C5)cc4)CC3)cc2)c1=O", "test system": "Sprague-Dawley rats, plasma", "setting": "oral, 40 mg/kg, together with: zanubrutinib 16 mg/kg", "AUC(0-t)": "21700 ± 7110 ng·h/mL"}
{"SMILES": "O=C(Nc1ccc(OC(F)(F)Cl)cc1)c1cnc(N2CC[C@@H](O)C2)c(-c2ccn[nH]2)c1", "test system": "Sprague-Dawley rat, male, plasma", "setting": "oral, 8 mg/kg", "AUC(0-t)": "1910 ± 347 ng·h/mL"}
{"SMILES": "Cc1cccc(CNC(=O)c2cn(CCNC(=O)c3ccccc3S)c3cc4c(cc3c2=O)OC(F)(F)O4)n1", "test system": "Sprague-Dawley rat, male, plasma", "setting": "intramuscular, 10 mg/kg of parent compound", "AUC(0-t)": "145 ± 22.3 ng·h/mL"}
{"SMILES": "COc1cccc(-c2n[nH]c(SCc3ccccn3)n2)c1OC", "test system": "Sprague-Dawley rats, female, plasma", "setting": "intravenous, 1.0 mg/kg, single dose", "AUC(0-t)": "2110 ng·h/mL"}
{"SMILES": "Cc1cccc(CNC(=O)c2cn(CCNC(=O)c3ccccc3Sc3c([N+](=O)[O-])ncn3C)c3cc4c(cc3c2=O)OC(F)(F)O4)n1", "test system": "Sprague-Dawley rat, male, whole blood", "setting": "intramuscular, 10 mg/kg of parent compound", "AUC(0-t)": "122 ± 74.5 ng·h/mL"}
{"SMILES": "CNCc1cc(-c2ccccc2F)n(S(=O)(=O)c2cccnc2)c1", "test system": "rat Sprague-Dawley male, plasma", "setting": "oral, 10 mg/kg", "AUC(0-t)": "275 ng·h/mL"}
{"note": "Excerpt of the above:"}
{"SMILES": "CC[C@@H]([C@H](C)O)n1ncn(-c2ccc(N3CCN(c4ccc(OC[C@@H]5CO[C@@](Cn6cncn6)(c6ccc(F)cc6F)C5)cc4)CC3)cc2)c1=O", "test system": "Sprague-Dawley rats, plasma", "setting": "oral, 40 mg/kg, together with: zanubrutinib 16 mg/kg", "AUC(0-t)": "21700 ± 7110 ng·h/mL"}
